Assay results collected from several papers.
Every numbered part comes from another study and shows a few of its results, in no order.

Sample 1 — method: protein binding microarray; form: double-stranded DNA, one strand shown; sample: in vitro; tested at: not given; relative to: not given; direction: higher = stronger binding
Target: Histone acetyltransferase KAT6A, winged helix 2, GST fusion (KAT6A, Homo sapiens, UniProt Q92794, residues 85-181)
Setting: 8-mer, flanks averaged, mean of 2 arrays, mostly near background
Target sequence (chain): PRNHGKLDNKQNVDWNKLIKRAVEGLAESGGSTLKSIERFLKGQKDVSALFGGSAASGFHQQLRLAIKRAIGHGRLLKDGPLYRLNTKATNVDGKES
Strand	E-score
ACTCGGGG	0.179
GCCACGCC	0.0562
CTCGTCAG	0.06
CTAGGTTA	-0.156
GGCAACTA	0.0775
GCTTCTAA	-0.254
AATAGCAG	-0.0984
GAAGACCA	0.0756
CATGGACG	0.0249
AATTATAT	-0.00201
GTGAACAC	-0.0886
CTCAGGGA	-0.0702
ATCATCCA	-0.0665
CGTTGGAG	0.0786
GTAATCAA	0.0711
AGCGCGAG	0.013
AGGCTCAT	0.092
TGCCGACA	0.0903
TGCTCGAA	0.0759
TATGTAGA	-0.182
AAGGAAGC	-0.137
CTGTCACA	-0.0402
ACAAAAAG	0.132
CGATGCAA	0.0342
ATGTTCGC	-0.0438

Sample 2 — method: universal PBM; form: double-stranded DNA, one strand shown; sample: in vitro; tested at: 600 nM; direction: higher = stronger binding
Target: Sal-like protein 4, full length isoform A (SALL4, Homo sapiens, UniProt Q9UJQ4, residues 1-1053)
Chain of UniProt Q9UJQ4 (whole entry, looked up): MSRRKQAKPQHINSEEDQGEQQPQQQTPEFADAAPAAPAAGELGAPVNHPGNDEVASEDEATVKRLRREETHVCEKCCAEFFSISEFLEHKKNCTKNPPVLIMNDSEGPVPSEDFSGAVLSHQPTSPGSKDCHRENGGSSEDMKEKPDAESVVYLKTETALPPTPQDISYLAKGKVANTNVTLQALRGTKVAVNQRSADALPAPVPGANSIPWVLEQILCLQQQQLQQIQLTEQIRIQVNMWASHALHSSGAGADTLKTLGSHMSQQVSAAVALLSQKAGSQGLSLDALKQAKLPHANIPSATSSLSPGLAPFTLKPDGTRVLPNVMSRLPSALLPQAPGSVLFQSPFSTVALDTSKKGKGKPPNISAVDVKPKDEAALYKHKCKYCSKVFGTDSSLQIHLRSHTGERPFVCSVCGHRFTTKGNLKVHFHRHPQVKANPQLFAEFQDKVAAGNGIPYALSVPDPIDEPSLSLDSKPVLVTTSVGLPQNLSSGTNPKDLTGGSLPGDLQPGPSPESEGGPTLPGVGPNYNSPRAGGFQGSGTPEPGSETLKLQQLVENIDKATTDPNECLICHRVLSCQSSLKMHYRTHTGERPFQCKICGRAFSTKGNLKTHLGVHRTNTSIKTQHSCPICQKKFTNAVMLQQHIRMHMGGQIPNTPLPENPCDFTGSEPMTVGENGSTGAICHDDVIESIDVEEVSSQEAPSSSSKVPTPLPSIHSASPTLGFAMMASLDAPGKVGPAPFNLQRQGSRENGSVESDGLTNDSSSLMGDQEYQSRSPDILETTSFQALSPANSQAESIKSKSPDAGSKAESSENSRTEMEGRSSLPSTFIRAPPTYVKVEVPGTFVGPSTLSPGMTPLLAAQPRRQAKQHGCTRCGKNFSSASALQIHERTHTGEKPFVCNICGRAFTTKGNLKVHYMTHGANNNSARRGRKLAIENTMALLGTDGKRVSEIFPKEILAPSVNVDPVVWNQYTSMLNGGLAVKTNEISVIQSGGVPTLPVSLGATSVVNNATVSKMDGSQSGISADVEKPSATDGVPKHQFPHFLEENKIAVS
Setting: 8-mer, flanks averaged, mean of replicates
Strand	E-score
ACCCCCGG	-0.308
GCTCGCGA	-0.0627
ATAATGGG	0.26
AATCCTGT	0.18
TACCATCA	-0.00588
CCCCACCC	-0.156
GACATGGA	0.0139
CCTACTCG	-0.173
CCCAATAG	-0.0018
ATTATGCA	0.314
ATCCGGGC	-0.348
ATCTTTAA	0.271
AGCTGAAG	-0.0877
GGCATCAC	-0.299
CTAACTAG	0.163
ATACGAGG	-0.0713
GCACTCGA	-0.204
CCGCGGTA	-0.178
CTTAGCAC	-0.0288
CACGGTAG	-0.106

Sample 3 — method: RNA Bind-n-Seq; form: RNA; sample: in vitro; tested at: 365 nM; relative to: no-protein control; direction: higher = stronger binding
Target: RNA binding protein fox-1 homolog 2, RRM domain, GST-SBP tag (RBFOX2, Homo sapiens, UniProt O43251-10, residues 100-194)
Setting: natural RNA segment, single round, ends assumed
All sequences stand within: GGGAGUUCUACAGUCCGACGAUC … UGGAAUUCUCGGGUGCCAA
Target sequence (chain): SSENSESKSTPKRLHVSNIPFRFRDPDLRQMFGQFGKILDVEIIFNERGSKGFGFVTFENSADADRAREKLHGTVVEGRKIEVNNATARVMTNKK
Strand	RBNS enrichment (R)
AGAGGCAUUAGACUAUUUUUUAGCUGCCCUCAUAAAUAUAUAACGAAUAGGUAAAUGCCAAUACCCAUACAGUUUUUCUAGUGGGGACAAAGGCCGUUUUAUUAGAAAUU	0.443
UAAGACUUAUUGAUCUGUGUGUAUCCCAGUGUUCCUCUGGGGUUCUGUCUAAACACCAACCAUCUUCUCUUGGAAUGGGCCCCAGGCAAGGCUUGCAGCAAUAUAGCCUG	0.446
UUAAGAGAACACCUGUGGUUUAAAUGUUCUUUUUCUGCUUCCUUUUCUAUCUGAGAGGUCCUAACCAUUACAGCUAUCACCCCUCGGCUGACAUGGUCUUUCAAGAUUCU	0.427
CUUAGGCACUAUUGUCUUUUGUCUUCCAGAGUAACAUAUCUGGGCCCACCUUUCUUGCACACUGUGAUUAUGUGCUAAGAAAAGGGUGGAGUUGGGAGGACAAUUUCACU	0.427
AGCCUGCACAUCUCUCUCUUUGGCCUGCUGGAGGGUACUCUGAUUCUCUGGCUGGCCGCCUGCGUCCCAGAGCACCAGAGUCCCUUCCCGACAGGCUAGGGUUAGGCAAU	0.298
CUUUGGACAGUGUUACAGUGAACACUUAGCAUCCUGUUUUUGGUUGGUAGUUAAGCAAACUGACAUUACGGAAAGUGCCUUAGACACUACAGUACUAAGACAAUGUUGAA	0.316
GAAUCUUCCCUGUCAGGCUCUUACAGCCACAGGCACUGUGUCUACUGUCUGGAAGACAUGUCCCCAUGGCUGUGGGGCCGCUGCUUCUGUUUAAAUAAAAGUGGCCUGGA	0.365
GCGGGUGUGAGCCAUUGCGCCCAGCCUUGAAGUCAUGUUCUAAAUUGUAUUUGAAUUUGUGCCUCUUUGUUUUUCCCCAAACCAAAGCCCUCAAAUUGUAGUCUCUGUCG	0.262

Sample 4 — method: RNA Bind-n-Seq; form: RNA; sample: in vitro; tested at: 200 nM; setting: whole 134-nt RNA, ends assumed; together with: 150 mM LiCl; relative to: input library; direction: higher = stronger binding; each molecule: 7-deaza-guanosine replaces G
Target: Fragile X messenger ribonucleoprotein 1, C-terminal low-complexity region (Fmr1, Mus musculus, UniProt P35922)
All sequences stand within: GGGAGUUCUACAGUCCGACGAUC … UGGAAUUCUCGGGUGUCAAGG
Strand	log2 enrichment
UGGAUCUUGGAGGGACCAACUUCCGUGUGCUUUGGGUGAAAGUAACGGACAAUGGGCUCCAGAAGGUGGAGAUGGAGAAUCAGAUCUAUG	-2.62
AUGUUCUUGAAUACUUAGCAAACAUACCAGCAUCCCAAAGUCACCAAGAUAAACCCUCCUACUCCAACAUCACAUGAUCUUCUAAUUCUA	1.22
CCUGUGCUACACAUCGUAUGUACCGAAUCGGGCCCCCCGGGGCCCCCCGGCCCCCCGGGGAAAGUAUUAUGUUACGCCGUUCGGAUCUGC	-2.93
AAGUCCUGUGCUACACAUCGUAUGUACCGAAUCGGUUUUUGGUUUGGAAAAAAAGGAAAGUAUUAUGUUACGCCGUUCGGAUCUGCACUU	-2.77
AAGUCCUGUGCUACACAUCGUAUGUACCGAAUCAAACCCAAAUUUUUAAACCCAAAAAAGUAUUAUGUUACGCCGUUCGGAUCUGCACUU	0.182
GACAGACAACACGCACCCACACAGACACAGAGGGAAGGGGUUGGGAUGGGGACAGGGUGCACAGCAGGGCGGGGUAGGACCCCAGCCCCU	0.687
GUCCUGUGCUACACAUCGUAUGUACCGAAUCGGAAAAAGGAAAAAAAGGUUUUUUUGGAAAGUAUUAUGUUACGCCGUUCGGAUCUGCAC	-2.3
GCAGGAAGUAAAAACAAAUGGAAAUGCUUCGGGUAGUGGCAGGGGUGGGGGUUGCUAAGGAAAGGGUGGGAUGGGAGUGGGUAAAGAGUU	1.31

Sample 5 — method: RNA Bind-n-Seq; form: RNA; sample: in vitro; tested at: not given; relative to: input RNA pool; direction: higher = stronger binding
Target: RING finger protein unkempt homolog, zinc fingers 1-6, GST-SBP tag (UNK, Homo sapiens, UniProt Q9C0B0, residues 30-357)
Chain of UniProt Q9C0B0 (30-357, looked up): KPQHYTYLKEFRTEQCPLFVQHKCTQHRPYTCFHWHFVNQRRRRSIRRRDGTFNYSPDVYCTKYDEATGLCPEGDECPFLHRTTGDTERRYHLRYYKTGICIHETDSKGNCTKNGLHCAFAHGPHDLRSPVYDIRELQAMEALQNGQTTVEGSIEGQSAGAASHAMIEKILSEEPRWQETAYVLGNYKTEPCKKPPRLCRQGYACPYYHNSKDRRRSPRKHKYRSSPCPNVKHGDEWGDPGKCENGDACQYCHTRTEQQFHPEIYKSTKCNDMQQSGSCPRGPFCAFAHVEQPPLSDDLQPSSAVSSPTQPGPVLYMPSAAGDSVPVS
Setting: RNA with constant flanks, human and mouse sites, ends assumed
All sequences stand within: GGGAGUUCUACAGUCCGACGAUC … CAACAGAGGAUUGAGCAUCA
Strand	bound/input enrichment [ratio]
GAACAUGUUGACAAACUGAAAAUCCCUCCUGAAGAAAUGAAACAAAUGGAACAAAAGUUGAUUAGAGACUUCCAAGAAUAUGUAGAGCCAGGAGAAGACUUCCCGGCUUCUCCCCAGAGA	0.834
CCUGCCCCUCCUCGGAGCCUGCUUGUGGAAUUCUUCCCCUUCGGGUGUGUGGUGGCAUUCCCCGCCACGUCCAAUGUGGACUCCAAAGGAUUUGUCCCUUCUUUGUCAUUUGAAAUGAAA	0.152
GCAGAUUACAAUGGCAGAUUGGCGGCAGAAAUAGAUGAUAGAAAGCAACUCACUCGAAUGUUAGCAGAUUUUCUUCGUUGUCAAAAGGAAGCCCUUGCAGAGAAAGAGCAUAAAUUGGAA	1.27
GCUAAACAGGAAAUUCUUGAAAACAAAGAUGUGGUUGUUCAACAUGUUCAUUUUGAUGGACUUGGAAGGACUAAAGAUGAUAUCAUCAUUUGUGAAAUUGGAGAUGUUUUCAAGGCCAAA	0.177
AAAGGGAAAUCAGUCCGUGUUCAUGUACAGUUUUUUGAUGACAGCCCAACAAGGGGCUGGGUUAGCAAAAGGCUUUUAAAGCCAUAUACAGGUUCAAAAUCAAAGGAAGCCCAGAAGGGA	0.321
UCUCUUGCUACUUGCCAGUUAUCUGAGCCAUUAUUGUGGUUCAUUUUGAGAGUAUUGGAUACUAGUGAUGCCUUGAAAGCAUUUCAUGAUAUGGGUGGUGUUCAGCUCAUAUGCAAUAAU	0.297
CUUCCAAAGGUCUGCUUAUACCCAGCAGUUUCUGCUGUAUAUGGCAACACAGAAGUGACUUUGGUUUACCUUGGAAAACCUUUGGACGGAUGACAGUGGCUUUCUUGUGAUGACAGACAG	0.188
UCCAGAAGCUAUUUGAAACUAAGAGACUUUGUGCUUGUGAAGUUUUGUCAAUUUUUGCCCAGUUUCUCCCGGGAAAGAUUACUGCAAGGAUUCAGUGAAGAUAUGGCAAUACAGGCACAG	0.27
